Results pooled from the literature.
Parts stem from different laboratories: compare values within a part only.

Set 1 — technique: RNAcompete; molecule type: RNA; medium: in vitro; tested at: 20 nM; setting: 7-mer, probes averaged, single round; baseline: mean of 7-mers; direction: higher = stronger binding; measurement: 7-mer Z-score
Target: PABPC1L2, full length, GST fusion (mouse, UniProt A0ABA7IW68)
Target sequence (chain): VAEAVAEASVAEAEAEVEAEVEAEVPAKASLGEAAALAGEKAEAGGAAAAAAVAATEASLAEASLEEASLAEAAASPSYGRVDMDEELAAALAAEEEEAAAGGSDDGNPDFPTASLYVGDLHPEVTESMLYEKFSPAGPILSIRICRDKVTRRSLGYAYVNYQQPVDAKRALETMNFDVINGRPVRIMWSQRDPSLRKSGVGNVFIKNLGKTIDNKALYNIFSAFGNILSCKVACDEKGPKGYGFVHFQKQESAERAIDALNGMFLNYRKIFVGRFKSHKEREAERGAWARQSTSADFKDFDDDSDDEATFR
AAGCGAG: 0.271
GUUGAUU: 0.0279
GAGCUUA: -0.079
UGGAAAA: 4.27
GCAGGCC: -0.0772
GGUGGUC: -0.0609
ACGUCUG: -0.324
AUGCUGG: 0.0605
GUAUUCU: -0.309
AUGCACU: -0.204
CCAGUCA: -0.289
GCUAGUU: -0.36
UUCCCGA: -0.398
UCACCAG: -0.206
GGUCAGG: 0.0805
UAUCAUC: -0.282
CCGGUCA: -0.193
UACACUC: -0.146
CUUCAUA: -0.199
AAAUUGA: 1.43
CAGCGUG: -0.251
GGACCUG: -0.126

Set 2 — technique: RNA Bind-n-Seq; molecule type: RNA; medium: in vitro; tested at: 365 nM; baseline: no-protein control; direction: higher = stronger binding; measurement: RBNS enrichment (R)
Target: RNA binding protein fox-1 homolog 2, RRM domain, GST-SBP tag (RBFOX2, Homo sapiens, UniProt O43251-10, residues 100-194)
Setting: natural RNA segment, single round, ends assumed
Target sequence (chain): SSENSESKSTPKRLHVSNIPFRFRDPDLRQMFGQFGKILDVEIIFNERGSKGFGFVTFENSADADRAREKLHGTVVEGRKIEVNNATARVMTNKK
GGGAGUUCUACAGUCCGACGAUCUUGCUGAGUGCUGGUGCAGGCUUUAUGCUUUCCACGUGAAUUAAAUCAAAUGUGAAGUUGAUCCAGAGAGAGCCUAGGUGACUGGGGAGCCAUUGAGUAGGGAAUUGUAUUGGAAUUCUCGGGUGCCAA: 0.799
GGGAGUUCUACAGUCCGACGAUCUUUCUUUUGACAUUGCAACCGAAGGUCAUAAGGCCGCUAGCUCCGCUGGGACAGAGGCUUGAGAGAACUAACGGCUCGGUGCCUUCUCCCUGGUCUCAGACCAUCGUCUCUGGAAUUCUCGGGUGCCAA: 0.511
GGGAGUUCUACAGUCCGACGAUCGGUGCCUGGCUGCCCAGCCUGCGGUAGCCGUGCUCCCUGCCCUCCUGUGGCCCUAUGGUGUGAUGCUGUGUCUGUAUCUAUGUGUCUAUACAAAGGUACUUGCCCUUUCCUGGAAUUCUCGGGUGCCAA: 0.9
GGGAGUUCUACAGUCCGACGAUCCCUAAGUUUUGAGGUGGGGUGAUGGCCCUCUACUUCCCUGUUUAUAGUCUAACUCACCUAUUAACCUCUCUCAUCCUGGGUCAUCCUCCCUCCUUUCUCAGUGUCUGAUUUGGAAUUCUCGGGUGCCAA: 0.486
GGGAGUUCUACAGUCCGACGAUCGACGUUUUGACGAUGAGGAAAGGAGAUGCUCAGAGAGAGAGAGAUCAUGUGUUGUGAGUCAGAUCACACAGUCGAUAGGAUCAGUAUUUCAAUUCCAGAGCCCCUCCACUUGGAAUUCUCGGGUGCCAA: 0.276
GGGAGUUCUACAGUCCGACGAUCUAUUGAGGCCAGAGGAGCAAGUGUGCUUCUUCCUUGUCCUUGUCCCAUCAUUGAGACCUUCAUCUACAGUUUCCAAACAGUCAUUGGAAAACGCACGACAGUUACCCAGAUGGAAUUCUCGGGUGCCAA: 1.73
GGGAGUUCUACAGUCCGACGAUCAUUGCUUUGACUAAAUCUGCUCAGGGGGAAUGUAAAACAGAUUAUAUUUUAUAAACCACUAGUGCCUUUGGGUUUCUUUGCCAAAAACUUAAGCCAGCCUCUAUCACCAAUGGAAUUCUCGGGUGCCAA: 0.516
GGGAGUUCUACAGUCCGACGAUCCUUGAAUGCUGGUGUCUGUUAGAAUGCUUCUGACUACAGAUGUAAUUAAAGGCUUUUCUUACUAUGUUUUAACCAAAGAUGUGGAGCAAUCCAAGCCGCAUAUCUACUGCUGGAAUUCUCGGGUGCCAA: 0.515
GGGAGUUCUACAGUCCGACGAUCCUGGCACGCUCUGCUCCAGGCUCUGACUCAGGGGUGGCUGAGCCUCAUGCUCCCAGAACCAUGCAUGGGGCAGCUAGGAUCCAUUUGUCUGUUGGAAAUGUUUGUAGCUUUGGAAUUCUCGGGUGCCAA: 1.26
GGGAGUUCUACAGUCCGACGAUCCUAUAUCCCAUGUAAGGGAUCUGGGGAGGAGGCAUGUGUCUACAACCAUACCUUUUUGCACUAUGGGCACUAACCACCCUGAAACUUCCUGCGGUAGCUCCCUCCCUUCAUGGAAUUCUCGGGUGCCAA: 0.687
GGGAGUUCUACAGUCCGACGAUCAGGGCCAAUGCACCCCCGCCUCACACACGCACUCCUUCUCCUCAAGGCCAGGGCAGAGGGCCUCACCGCCUCCCGGGCCUGCUGUCAGCUUGCAGCCCGGGGACAGAGGCUGGAAUUCUCGGGUGCCAA: 0.948
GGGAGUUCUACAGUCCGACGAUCGCUGGAGGAGGAAAGCGUGAGGACGGGGAUGAUUUUGAUCACGAUUCCAUUUAUUGCCUUUACAUAAGGUUGAGGGAAGGGGAAGGUUUGGUUUGUUUGUCUUUUAAUUGUGGAAUUCUCGGGUGCCAA: 0.686

Set 3 — technique: universal PBM; molecule type: double-stranded DNA, one strand shown; medium: in vitro; tested at: not given; direction: higher = stronger binding; measurement: E-score
Target: Sal-like protein 4, full length isoform B (SALL4, Homo sapiens, UniProt Q9UJQ4-2, residues 1-616)
Setting: 8-mer, flanks averaged, mean of replicates
Construct (chain): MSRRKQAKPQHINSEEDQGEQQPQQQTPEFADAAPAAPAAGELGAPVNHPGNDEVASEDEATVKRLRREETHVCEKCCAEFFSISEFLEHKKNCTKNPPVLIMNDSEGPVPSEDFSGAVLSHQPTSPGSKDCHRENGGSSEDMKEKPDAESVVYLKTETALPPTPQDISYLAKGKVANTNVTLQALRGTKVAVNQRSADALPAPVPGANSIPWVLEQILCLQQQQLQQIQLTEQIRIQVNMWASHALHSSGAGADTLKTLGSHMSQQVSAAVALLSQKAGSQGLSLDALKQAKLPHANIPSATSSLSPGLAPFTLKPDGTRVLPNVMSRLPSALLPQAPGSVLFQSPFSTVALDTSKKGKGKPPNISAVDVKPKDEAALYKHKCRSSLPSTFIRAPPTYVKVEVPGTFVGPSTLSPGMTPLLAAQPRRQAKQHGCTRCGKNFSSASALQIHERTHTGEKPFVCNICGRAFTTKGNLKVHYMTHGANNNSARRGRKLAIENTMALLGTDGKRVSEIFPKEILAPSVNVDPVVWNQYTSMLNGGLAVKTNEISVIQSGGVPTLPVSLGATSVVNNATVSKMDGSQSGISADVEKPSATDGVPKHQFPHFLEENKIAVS
AAAGGGAC: -0.123
GCAAAGGC: -0.159
ATCTGACG: -0.0942
ACCACTTC: 0.0376
CCCCCAAA: -0.0275
GGCGAACA: -0.0863
CGATACAA: 0.138
AAGACTCC: -0.155
CGTCATTC: 0.101
CTGGAGCA: -0.193
ATAGACCG: -0.0215
CTCCGTAA: -0.107
ATAGATGG: 0.0519
ATTGCCAC: 0.0945
ACATGCCC: -0.0196
GACCACAC: -0.152
ACGAGTTA: 0.147
ATCCCCTC: -0.131
GAAAGCGA: -0.0599
GCTACAAA: 0.12
CTACTCAC: -0.117
CGCCGCAA: -0.163
AGAGTGTC: 0.0998
ACGGAGGA: -0.137
CAGAAAGC: -0.139

Set 4 — technique: RNA Bind-n-Seq; molecule type: RNA; medium: in vitro; tested at: 200 nM; setting: whole 134-nt RNA, ends assumed; added: 150 mM LiCl; baseline: input library; direction: higher = stronger binding; measurement: log2 enrichment; all molecules: 7-deaza-guanosine replaces G
Target: Ras GTPase-activating protein-binding protein 1, full length (G3BP1, Homo sapiens, UniProt Q13283)
Sequence of UniProt Q13283 (whole entry, looked up): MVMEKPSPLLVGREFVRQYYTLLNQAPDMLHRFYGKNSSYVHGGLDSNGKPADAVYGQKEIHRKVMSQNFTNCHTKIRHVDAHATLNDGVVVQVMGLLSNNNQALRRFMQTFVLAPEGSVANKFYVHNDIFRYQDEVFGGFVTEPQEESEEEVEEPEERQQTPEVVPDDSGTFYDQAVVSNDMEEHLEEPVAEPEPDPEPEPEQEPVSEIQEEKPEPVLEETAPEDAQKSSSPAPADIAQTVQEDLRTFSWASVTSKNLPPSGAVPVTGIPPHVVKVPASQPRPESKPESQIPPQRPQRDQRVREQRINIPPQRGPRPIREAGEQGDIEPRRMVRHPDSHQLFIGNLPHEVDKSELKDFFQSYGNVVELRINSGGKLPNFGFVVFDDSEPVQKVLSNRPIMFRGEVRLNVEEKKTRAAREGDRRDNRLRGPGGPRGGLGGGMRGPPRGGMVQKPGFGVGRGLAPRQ
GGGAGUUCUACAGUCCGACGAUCAAGUCCUGUGCUACACAUCGUAUGUACCGAAUCGGGGAGGGGAGGGGAAAAAGGGGAAAGUAUUAUGUUACGCCGUUCGGAUCUGCACUUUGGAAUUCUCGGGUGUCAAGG: 0.944
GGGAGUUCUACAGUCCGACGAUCUCCUGUGCUACACAUCGUAUGUACCGAAUCGGAAAAAAGGGAAAAAAGGGAAAAAAGGGGAAAGUAUUAUGUUACGCCGUUCGGAUCUGCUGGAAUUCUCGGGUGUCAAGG: -0.472
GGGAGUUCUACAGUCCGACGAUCCUCAAGUCCUGUGCUACACAUCGUAUGUACCGAAUCGGUGGAAAAAAAGGUGGAAAGUAUUAUGUUACGCCGUUCGGAUCUGCACUUCCAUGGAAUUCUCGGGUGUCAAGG: 0.345
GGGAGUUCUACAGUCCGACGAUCGUCCUGUGCUACACAUCGUAUGUACCGAAUCGGGGUUUUUGGUUUUUGGGGUUUUUGGAAAGUAUUAUGUUACGCCGUUCGGAUCUGCACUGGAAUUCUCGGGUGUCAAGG: -0.292
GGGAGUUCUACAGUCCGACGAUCCCUGUGCUACACAUCGUAUGUACCGAAUCGGGGAAAGGGGUUUUUGGGGAAAAAAAGGGGAAAGUAUUAUGUUACGCCGUUCGGAUCUGCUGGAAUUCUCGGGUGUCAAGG: 0.731
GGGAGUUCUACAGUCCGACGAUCUGCCCUCCGUGGAGUCUUUGUUUCGAAGUCCGAUAAAGGAAUCUCUAUUCCGGUCUUCUUCUAAAGAGUCUUUGGUACGAACAUCUUCCAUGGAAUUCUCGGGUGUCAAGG: -0.0988
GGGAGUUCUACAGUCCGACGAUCACCAUGCAGGUGGGCAUCUUUGGGAAGUGGGGCAAGGGGGGGAUAAGGAGGGGGGUAACACUUUGGGAACAGGUGGUCCCAGGUCGUUUCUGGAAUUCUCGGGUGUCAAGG: 0.335
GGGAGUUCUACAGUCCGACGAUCAAGUCCUGUGCUACACAUCGUAUGUACCGAAUCGGGGAAAAGGAAAAGGGAAAAGGAAAGUAUUAUGUUACGCCGUUCGGAUCUGCACUUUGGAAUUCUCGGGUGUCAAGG: -0.379
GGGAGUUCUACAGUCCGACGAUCUCAAGUCCUGUGCUACACAUCGUAUGUACCGAAUCGGUUUUUGGUUUGGUUUGGAAAGUAUUAUGUUACGCCGUUCGGAUCUGCACUUCCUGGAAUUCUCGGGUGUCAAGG: -0.566
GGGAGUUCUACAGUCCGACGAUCGCAGGAAGUAAAAACAAAUGGAAAUGCUUCGGAUAGUGGCAGGGGUGGGGGUUGCUAAGGAAAGGGUGAGAUGGGAGUGGGUAAAGAGUUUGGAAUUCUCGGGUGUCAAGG: 0.0181
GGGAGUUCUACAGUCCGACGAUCGCAGGAAGUAAAAACAAAUGGAAAUGCUUCGGAUAGUGGCAGGGGUGGGGGUUGCUAAAGAAAGGGUGGGAUGGGAGUGGGUAAAGAGUUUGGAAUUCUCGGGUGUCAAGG: 0.487

Some of these lines once more (set 3):
ACCACTTC: 0.0376
CCCCCAAA: -0.0275
GGCGAACA: -0.0863
CGATACAA: 0.138
AAGACTCC: -0.155
CGTCATTC: 0.101
CTGGAGCA: -0.193
ATAGACCG: -0.0215
CTCCGTAA: -0.107
